Published values collected from several papers.
Each numbered part is a random draw from the data of one study; scales do not carry over between parts. Positions count from the first letter of the parent shown.
UniProt Q8NI60, sequence (whole entry, looked up): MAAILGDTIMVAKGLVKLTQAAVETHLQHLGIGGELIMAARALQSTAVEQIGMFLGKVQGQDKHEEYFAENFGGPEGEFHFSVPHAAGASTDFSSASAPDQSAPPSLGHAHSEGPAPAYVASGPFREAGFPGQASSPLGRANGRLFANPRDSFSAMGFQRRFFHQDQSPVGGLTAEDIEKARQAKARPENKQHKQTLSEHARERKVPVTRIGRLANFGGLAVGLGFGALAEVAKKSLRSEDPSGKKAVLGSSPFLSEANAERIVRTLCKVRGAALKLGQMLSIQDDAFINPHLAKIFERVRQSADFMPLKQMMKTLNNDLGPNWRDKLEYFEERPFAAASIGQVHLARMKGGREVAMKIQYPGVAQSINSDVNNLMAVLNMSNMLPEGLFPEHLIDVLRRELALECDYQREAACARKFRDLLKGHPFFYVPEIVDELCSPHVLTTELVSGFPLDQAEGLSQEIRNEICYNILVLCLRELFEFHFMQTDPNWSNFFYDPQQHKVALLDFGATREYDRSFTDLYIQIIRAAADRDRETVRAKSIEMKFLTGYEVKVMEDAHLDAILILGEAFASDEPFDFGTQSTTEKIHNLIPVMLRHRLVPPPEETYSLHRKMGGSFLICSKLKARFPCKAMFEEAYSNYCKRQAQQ

Series 1
Target: vanadate, free oxyanion
Method: microfluidic competitive inhibition
Medium: in vitro, cell-free expressed
Concentration: not given
Setting: derived from inhibition constants, unchanged parent 676 nM
Direction: lower = stronger binding
Starting sequence: PafA, mature enzyme, eGFP fusion (Elizabethkingia meningoseptica, UniProt Q9KJX5); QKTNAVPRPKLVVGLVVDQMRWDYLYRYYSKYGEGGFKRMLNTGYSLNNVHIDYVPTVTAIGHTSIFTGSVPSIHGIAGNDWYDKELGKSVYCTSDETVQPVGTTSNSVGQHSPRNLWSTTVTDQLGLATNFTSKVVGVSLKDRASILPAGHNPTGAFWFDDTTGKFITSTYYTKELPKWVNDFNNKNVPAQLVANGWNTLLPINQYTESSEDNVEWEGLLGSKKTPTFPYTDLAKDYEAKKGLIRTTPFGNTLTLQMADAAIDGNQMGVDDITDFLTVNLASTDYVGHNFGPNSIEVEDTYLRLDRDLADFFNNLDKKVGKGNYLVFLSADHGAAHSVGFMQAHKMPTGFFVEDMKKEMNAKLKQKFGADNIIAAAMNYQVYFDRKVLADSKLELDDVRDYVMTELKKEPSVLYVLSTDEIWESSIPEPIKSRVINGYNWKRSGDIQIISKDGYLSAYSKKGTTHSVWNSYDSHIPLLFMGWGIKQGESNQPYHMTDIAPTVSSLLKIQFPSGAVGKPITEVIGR
Substitution | oxyanion analog dissociation constant
A129G | 684 nM
T208V | 721 nM
W198G | 485 nM
N437V | 1.05 µM
G369V | 666 nM
V181G | 976 nM
I52V | 602 nM
K318V | 784 nM
M360G | 787 nM
A375V | 1.16 µM
S338G | 552 nM
V50G | 601 nM
F511G | 703 nM
Y383V | 745 nM
T171G | 597 nM

Series 2
Target: CCNA2, cyclin fold, Cln2 fusion (human)
Method: yeast growth competition, sequencing
Medium: yeast
Setting: strong parent motif
Reference: not given
Direction: higher = stronger binding
Starting sequence: BRCA2 docking peptide (human); PSIKRNLLNEFDR
Substitution | normalised enrichment score
PSIKRNLLHEFDR [N9H] | 5.5
PAIKRNLLNEFDR [S2A] | 4.59
PSIKINLLNEFDR [R5I] | 1.42
PSIKRNMLNEFDR [L7M] | 1.1
PSIKPNLLNEFDR [R5P] | 0.605
PSIKKNLLNELDR [R5K F11L] | 0.415
PSIKRNLLNEFGR [D12G] | 4.17
PSIKRKLLNEFDR [N6K] | 4.53

Further values, each from its own experiment
Substance | target or system | assay | system | conditions | scale | measurement | result
SNRPB2 (Homo sapiens, UniProt P08579) | SNRPD3 (Homo sapiens, UniProt P62318) | cross-linking MS | cell fractions | added: DSSO | – | cross-linked residues | K93 to K78
O=c1cc[nH]c(=O)[nH]1 | HEK-293T/ACE2 | – | – | concentration not given, 16 (unit not given) | reference: vehicle | viability | 76.8%
RBBP4 (Homo sapiens, UniProt Q09028) | MTA1 (Homo sapiens, UniProt Q13330) | cross-linking MS | – | hits only | – | interaction screen | cross-linked
C[C@@H]1O[C@@H]1P(=O)(O)O | HEK-293T/ACE2 | – | – | concentration not given, 16 (unit not given) | reference: vehicle | viability | 104%
COX4I1 (Homo sapiens, UniProt P13073) | SDHA (Homo sapiens, UniProt P31040) | cross-linking MS | cell fractions | added: DSSO | – | cross-linked residues | K60 to K167
O=C(NCc1ncc(C(F)(F)F)cc1Cl)c1ccc2c(c1)C1(CCS(=O)(=O)CC1)[C@H](C1CC1)N2S(=O)(=O)c1ccc(F)cc1 | Atypical kinase COQ8A, mitochondrial (COQ8A, Homo sapiens, UniProt Q8NI60) | cell-free assay, competition with immobilised ligand | – | 1 µM | – | remaining binding | 96%
RRM2 (Homo sapiens, UniProt P31350) | HSPA9 (Homo sapiens, UniProt P38646) | cross-linking MS | cell fractions | added: DSSO | – | cross-linked residues | K283 to K300

A few entries again (series 1):
Substitution | oxyanion analog dissociation constant
K318V | 784 nM
M360G | 787 nM
F511G | 703 nM
W198G | 485 nM
T171G | 597 nM
